# Published values from different studies.
# Every numbered part comes from another study and shows a few of its results, in no order. Changes are numbered by the printed parent chain.

# Series 1 — technique: universal PBM; form: double-stranded DNA, one strand shown; matrix: in vitro; concentration: not given; reading: higher = stronger binding
# Target: Sal-like protein 4, full length isoform B (SALL4, Homo sapiens, UniProt Q9UJQ4-2, residues 1-616)
# Notes: 8-mer, flanks averaged, mean of replicates
# Construct (chain): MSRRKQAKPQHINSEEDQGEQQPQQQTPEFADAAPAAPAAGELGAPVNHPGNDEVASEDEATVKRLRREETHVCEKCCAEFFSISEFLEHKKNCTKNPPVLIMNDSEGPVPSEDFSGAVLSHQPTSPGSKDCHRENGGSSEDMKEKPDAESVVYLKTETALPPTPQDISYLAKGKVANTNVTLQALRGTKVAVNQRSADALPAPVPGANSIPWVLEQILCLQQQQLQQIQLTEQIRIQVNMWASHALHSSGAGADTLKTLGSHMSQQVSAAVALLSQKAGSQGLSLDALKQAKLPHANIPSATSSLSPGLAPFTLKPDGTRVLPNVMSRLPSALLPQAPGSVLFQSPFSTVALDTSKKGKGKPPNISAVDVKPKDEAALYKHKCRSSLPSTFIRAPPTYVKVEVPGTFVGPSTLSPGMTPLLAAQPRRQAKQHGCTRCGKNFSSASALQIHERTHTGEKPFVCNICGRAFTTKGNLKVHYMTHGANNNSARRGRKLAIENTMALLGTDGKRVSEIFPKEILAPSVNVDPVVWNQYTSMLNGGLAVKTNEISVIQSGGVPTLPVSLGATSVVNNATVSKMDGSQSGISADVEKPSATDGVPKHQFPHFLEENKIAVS
Strand,E-score
CCGCGACG,-0.283
ACAGCTGT,-0.176
CCTGATTA,0.14
GGCTTCCA,-0.237
AAGGAAAA,0.228
AAGCCGGG,-0.316
TAAACTCA,0.131
GGGGATGA,-0.208
CCGCGCTA,-0.158
AAATTGCC,0.193
CCCTTGTC,-0.028
CAGTGGGA,-0.211
GGTTCGTA,-0.0637
TCCGGGAA,-0.141
GCGTGGAC,-0.216
ACAGCATC,-0.00729
CTTGATGC,-0.0807
GTCCGGTA,-0.118
ACGGAGAA,0.0398
CTATGAGA,0.139
CTTAGGTA,-0.0395
CCATAGCA,0.0144

# Series 2 — target: CCND3, cyclin fold, Cln2 fusion (human); technique: yeast growth competition, sequencing; matrix: yeast; notes: weak parent motif; relative to: not given; reading: higher = stronger binding
# Parent: PKN2 docking peptide (human); VSAVQKLDFSDTM; partner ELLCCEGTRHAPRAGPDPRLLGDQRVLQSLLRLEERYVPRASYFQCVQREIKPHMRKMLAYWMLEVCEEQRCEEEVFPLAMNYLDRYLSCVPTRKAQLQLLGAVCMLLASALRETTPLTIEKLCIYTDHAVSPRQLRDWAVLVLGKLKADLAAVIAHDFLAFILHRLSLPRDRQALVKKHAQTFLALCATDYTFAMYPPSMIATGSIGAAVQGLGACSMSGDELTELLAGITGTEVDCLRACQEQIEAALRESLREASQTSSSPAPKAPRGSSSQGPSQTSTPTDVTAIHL
Change,normalised enrichment score
VSAVQELDFSDTM [K6E],0.0747
VKAVQKLDFSDTM [S2K],0.0768
DSAVQKLDFSDTM [V1D],0.0723
VLAVQKLDFSDTM [S2L],0.0947
HSAVQKLDFSDTM [V1H],0.157
VSAVQKLDFSDTF [M13F],0.0974
VSAVQKLDFSDLM [T12L],0.179
CSAVQKLDFSDTM [V1C],0.113
VSAVQKLDFSDTG [M13G],0.144
VSAVQKLDPSDTM [F9P],0.0493
ASAVQKLDFSDTM [V1A],0.0799
VSFVQKLDFSDTM [A3F],0.0626
VSAVQKWDFSDTM [L7W],0.112
VSAVQKLDFKDTM [S10K],0.136
VSAVQLLDFSDTM [K6L],0.0913
VSAVQKLDFSDTK [M13K],-0.00513
VSSVQKLDFSDTM [A3S],0.128
VSGVQKLDFSDTM [A3G],0.0281
VSAVQKLDFSDTS [M13S],0.13
VSAVQKEDFSDTM [L7E],0.127
VSAVQKLPFSDTM [D8P],0.12
VSAVQKLDFSDTY [M13Y],0.218
VSAVQKLDFSTTM [D11T],0.0959
VSAVQKLDFSRTM [D11R],0.118

# Series 3 — technique: RNA Bind-n-Seq; form: RNA; matrix: in vitro; concentration: 1 µM; notes: whole 134-nt RNA, ends assumed; with: 150 mM KCl; relative to: input library; reading: higher = stronger binding
# Target: Ras GTPase-activating protein-binding protein 1, RRM domain (G3BP1, Homo sapiens, UniProt Q13283)
# Sequence of UniProt Q13283 (whole entry, looked up): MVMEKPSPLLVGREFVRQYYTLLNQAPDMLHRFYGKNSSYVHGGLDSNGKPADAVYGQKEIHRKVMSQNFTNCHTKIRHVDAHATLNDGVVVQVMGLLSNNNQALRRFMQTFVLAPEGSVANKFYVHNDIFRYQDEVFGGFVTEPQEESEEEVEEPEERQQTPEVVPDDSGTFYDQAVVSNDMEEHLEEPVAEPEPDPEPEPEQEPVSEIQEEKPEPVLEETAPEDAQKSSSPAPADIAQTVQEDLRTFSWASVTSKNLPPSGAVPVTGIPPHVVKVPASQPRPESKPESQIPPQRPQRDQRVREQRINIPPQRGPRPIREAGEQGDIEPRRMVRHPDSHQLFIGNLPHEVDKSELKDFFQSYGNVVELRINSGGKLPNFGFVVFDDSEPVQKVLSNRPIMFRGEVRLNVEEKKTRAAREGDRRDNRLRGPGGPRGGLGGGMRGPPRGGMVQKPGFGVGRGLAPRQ
# All sequences stand within: GGGAGUUCUACAGUCCGACGAUC … UGGAAUUCUCGGGUGUCAAGG
Strand,log2 enrichment
UGGGAGGUGGAUAUUGUUUAUUUUUUUAGCUCAUUUCCAGGGGUGGGAAUUUUUUUUUAAUAUGUGUCAUGAAUAAAGUUGUUUUUGAAA,2.08
CCUGUGCUACACAUCGUAUGUACCGAAUCGGGGUUUUUGGGGAAAAAAAGGGGAAAGGGGAAAGUAUUAUGUUACGCCGUUCGGAUCUGC,0.675
UCCUGUGCUACACAUCGUAUGUACCGAAUCGGGUUUUUGGGGUUUUUGGGGUUUUUGGGGAAAGUAUUAUGUUACGCCGUUCGGAUCUGC,0.243
GUCCUGUGCUACACAUCGUAUGUACCGAAUCAAACCCCCAAACCCAAAUUUUUUUAAAAAAGUAUUAUGUUACGCCGUUCGGAUCUGCAC,-0.368
UCCAUGCAGGUGGGCAUCUUUGGGAAGUGGGGCAAGGGGGGGAUAGGGAGGGGGGUAACACUUUGGGAACAGGUGGUCCCAGGUCGUUUC,-0.538
GUCCUGUGCUACACAUCGUAUGUACCGAAUCAAAUUUUUUUAAAUUUAAACCCCCAAAAAAGUAUUAUGUUACGCCGUUCGGAUCUGCAC,-1.49
UCCUGUGCUACACAUCGUAUGUACCGAAUCGGGGAAAAAGGGGUUUUUUUGGGGUGGGGAAAGUAUUAUGUUACGCCGUUCGGAUCUGCA,0.703
CAAGUCCUGUGCUACACAUCGUAUGUACCGAAUCGGGUGGGAAAAAGGGUUUGGGAAAGUAUUAUGUUACGCCGUUCGGAUCUGCACUUC,0.82
UGGGAGGUGGUUUUUGUUUAUUUUUUUAGCUCAUUUCCAGGGGUGGGAAUUUUUUUUUAAUAUGUGUCAUGAAUAAAGUUGUUUUUGAAA,1.46

# Series 4 — technique: RNA Bind-n-Seq; form: RNA; matrix: in vitro; concentration: 365 nM; relative to: no-protein control; reading: higher = stronger binding
# Target: RNA binding protein fox-1 homolog 2, RRM domain, GST-SBP tag (RBFOX2, Homo sapiens, UniProt O43251-10, residues 100-194)
# Notes: natural RNA segment, single round, ends assumed
# All sequences stand within: GGGAGUUCUACAGUCCGACGAUC … UGGAAUUCUCGGGUGCCAA
# Target sequence (chain): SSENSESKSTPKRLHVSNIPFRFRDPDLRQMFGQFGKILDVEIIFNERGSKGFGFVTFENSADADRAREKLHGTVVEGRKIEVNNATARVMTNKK
Strand,RBNS enrichment (R)
CAAUCCAGGCUCCAGCACCCCUCUGCAGACUACACAGGGGGUCAGUGUGUGUGUGUGACUAGACCUCUCAUUUUAAGCUCUAGUCGUAGCACUUUUUCAGAGUCUCCUAG,0.39
UCUUUGUGCAUGGUGCAUGUCAAGUCAGGAAGCCAAGAAACCGUUGGCAUUAAAAUCUAGAUGCAUAGAGAUCCUUGCUAUGAGUUGUGGAUAGGAGUGGCUCCAUCUAU,18.3
UAUCAGGAACUUGAGCAUCUGCAGAUAUUGGUAUCGGAGGGCGGUCCUGGAACCAAGCAUCCACGGAUACUGAGGGGUGACAUUUCAUGAAGUGUAGAUCAUUGUAUUCA,0.532
AUCAUUAUGUUUAACAGGCACUUAAUCUCAGUAAAGUCAGUUGCCAGUUAAGUUCCACCCAGUAGUCAGUCCCCUUUGUAGUUAGUGGGAUUAUUUGAUAAUUGGUUAGA,0.7
UUGAGCUAAAAUAACUUUUGUAAAGAUUAAGCUCAUUUAGAUUUUUUUUAAAGUAUUGCAGCAGGAUCUGCUGCAGGGUUCUGUUGUUUUGUUUUGCUUAUUUUUAAAUU,1.12
GUAGAAUUCAGAGACUUCUCAUUCAAUCUUGUAUCCUAUGCAGCUACAAAUAUUUUUUAAAUGUUAGUAAUAAACAUUGGAAUUUUGUCUUAAAGAGUUCAAAACCUUGG,0.546
AGGUGGUGUAUCGCCACCUGACUCCUUGUUUAAUGACAGAGGUCUGGGAUGUCACAGUCCAAAAGGAAAGUGCCUUUCUCCAUGGCUGGAGUAUGGAGUUUACCUUUGGA,0.211
UGUGGUGUAUAUUUCAACAGGGACCCUUGUAAAUUGUCAUAUGCCAAUAAAAUGUCCUAAGUGGUAAUAGCUGGUCUCUGUUUGCCUGACGUUGAGGCUAUCGCUGCUUG,1.18

# For quick reference, copied from above (series 3):
Strand,log2 enrichment
CCUGUGCUACACAUCGUAUGUACCGAAUCGGGGUUUUUGGGGAAAAAAAGGGGAAAGGGGAAAGUAUUAUGUUACGCCGUUCGGAUCUGC,0.675
UCCUGUGCUACACAUCGUAUGUACCGAAUCGGGUUUUUGGGGUUUUUGGGGUUUUUGGGGAAAGUAUUAUGUUACGCCGUUCGGAUCUGC,0.243
GUCCUGUGCUACACAUCGUAUGUACCGAAUCAAACCCCCAAACCCAAAUUUUUUUAAAAAAGUAUUAUGUUACGCCGUUCGGAUCUGCAC,-0.368
UCCAUGCAGGUGGGCAUCUUUGGGAAGUGGGGCAAGGGGGGGAUAGGGAGGGGGGUAACACUUUGGGAACAGGUGGUCCCAGGUCGUUUC,-0.538
GUCCUGUGCUACACAUCGUAUGUACCGAAUCAAAUUUUUUUAAAUUUAAACCCCCAAAAAAGUAUUAUGUUACGCCGUUCGGAUCUGCAC,-1.49
